{"data": "Measurements gathered from unrelated publications", "note": "Numbered parts are unrelated; each lists some results of a single study. Substitutions count along the parent as printed.", "sequence of UniProt Q08881 (whole entry, looked up)": "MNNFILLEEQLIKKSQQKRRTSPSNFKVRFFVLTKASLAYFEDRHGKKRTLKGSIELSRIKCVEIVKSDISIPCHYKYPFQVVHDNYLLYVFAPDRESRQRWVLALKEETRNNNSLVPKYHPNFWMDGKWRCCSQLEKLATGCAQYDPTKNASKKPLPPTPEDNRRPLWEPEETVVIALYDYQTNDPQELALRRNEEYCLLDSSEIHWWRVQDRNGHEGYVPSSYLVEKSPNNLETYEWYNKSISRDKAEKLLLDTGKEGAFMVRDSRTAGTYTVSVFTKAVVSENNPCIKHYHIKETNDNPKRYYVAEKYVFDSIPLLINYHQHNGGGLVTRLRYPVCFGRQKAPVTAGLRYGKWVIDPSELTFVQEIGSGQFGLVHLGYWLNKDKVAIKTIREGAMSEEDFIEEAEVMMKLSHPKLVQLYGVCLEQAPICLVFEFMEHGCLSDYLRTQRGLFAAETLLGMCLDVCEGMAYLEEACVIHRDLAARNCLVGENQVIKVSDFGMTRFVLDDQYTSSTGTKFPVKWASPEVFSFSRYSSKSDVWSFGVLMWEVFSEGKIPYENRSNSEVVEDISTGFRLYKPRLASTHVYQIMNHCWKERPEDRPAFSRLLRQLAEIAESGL"}
{"data": "Study 1", "Substitution": "R32E", "target": "ABI1, truncated, D143A, DHFR fusion (Arabidopsis thaliana)", "technique": "DHFR PCA, deep sequencing", "matrix": "yeast", "notes": "methotrexate growth selection, single substitutions", "reference": "wild-type fitted maximum", "direction": "higher = stronger binding", "starting sequence": "PYL1, truncated, DHFR fusion (Arabidopsis thaliana); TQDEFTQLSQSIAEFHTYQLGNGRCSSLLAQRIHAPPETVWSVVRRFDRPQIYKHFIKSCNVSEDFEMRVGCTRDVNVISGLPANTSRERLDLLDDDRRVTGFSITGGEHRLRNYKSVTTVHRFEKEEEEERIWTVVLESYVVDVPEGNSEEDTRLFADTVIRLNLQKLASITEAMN"}
{"setting": "added: (+)-ABA 17 µM", "relative binding score": "78.4%"}
{"setting": "added: (+)-ABA 0 µM", "relative binding score": "30%"}
{"setting": "added: (+)-ABA 58 µM", "relative binding score": "87.4%"}
{"setting": "added: (+)-ABA 0.11 µM", "relative binding score": "31.1%"}
{"setting": "added: (+)-ABA 0.39 µM", "relative binding score": "40.7%"}
{"setting": "added: (+)-ABA 1.4 µM", "relative binding score": "47.3%"}
{"data": "Study 2", "target": "TAR DNA-binding protein 43, full length, His tag (TARDBP, Homo sapiens, UniProt Q13148, residues 1-414)", "technique": "RNA Bind-n-Seq", "form": "RNA", "matrix": "in vitro", "concentration": "20 nM", "notes": "6-mer, flanks averaged, single round", "added": "150 mM KCl", "reference": "input library", "direction": "higher = stronger binding"}
{"Sequence": "GCCAGG", "6-mer enrichment (R)": 1.91}
{"Sequence": "GUGGCG", "6-mer enrichment (R)": 3.43}
{"Sequence": "CAGCUG", "6-mer enrichment (R)": 0.853}
{"Sequence": "UCACAA", "6-mer enrichment (R)": 0.603}
{"Sequence": "UGAUUU", "6-mer enrichment (R)": 0.615}
{"Sequence": "UUUCUG", "6-mer enrichment (R)": 0.633}
{"Sequence": "UUAAGU", "6-mer enrichment (R)": 0.638}
{"Sequence": "AAUUAC", "6-mer enrichment (R)": 0.626}
{"data": "Single results of other studies"}
{"Substance": "SRSF1 (Homo sapiens, UniProt Q07955)", "target or system": "SRSF5 (Homo sapiens, UniProt Q13243)", "assay": "cross-linking MS", "test system": "cell fractions", "setting": "added: DSSO", "measurement": "cross-linked residues", "value": "K179 to K125"}
{"Substance": "FC(F)(F)c1ccc(/C=C/c2nc(COc3ccc(CCCCn4ccnn4)cc3)co2)cc1", "target or system": "ITK (Homo sapiens, UniProt Q08881)", "assay": "enzyme activity, inhibitor", "setting": "0.5 µM", "scale": "reference: control", "measurement": "remaining activity", "value": "102%"}
{"note": "Some of these lines once more (study 1):"}
{"setting": "added: (+)-ABA 1.4 µM", "relative binding score": "47.3%"}
